Literature values, collected from citations in different studies.
Numbered parts are unrelated; values within a part may stem from several laboratories.

Block 1 — organism: Cryptosporidium parvum; technique: high-throughput screen; tested at: concentration not given; measurement: activity
CCOC(=O)[C@H](CCc1ccccc1)N[C@H]1CCc2ccccc2N(CC(=O)O)C1=O: inactive
CC(C)(C)NCC(O)c1cc(O)cc(O)c1 (stereo not shown): inactive
COc1cc(CNC(=O)CCCC/C=C\C(C)C)ccc1O: inactive
C[C@]12CCC(=O)C=C1CC[C@@H]1[C@@H]2C(=O)C[C@@]2(C)[C@H]1CC[C@]2(O)C(=O)CO: inactive

Further values, each from its own experiment
Cc1nc(N2CC[C@@H](O)C2)ncc1-c1cc(C(F)(F)F)cc2[nH]ncc12  IC50 (METAP2 (human); enzyme activity; Co(II) enzyme): 31 nM
CC(Nc1nc(N2CCCC2)nc2ccccc12)c1ccccc1 (stereo not shown)  toxicity (HeLa; 100 µM): toxic
CN1C(=O)[C@@H](N2CCc3c(nn(Cc4ccccc4)c3Br)C2=O)COc2ccccc21  IC50 (RIPK1 (human); cellular activity): 1.3 nM
O=C(c1cc(Cc2n[nH]c(=O)c3ccccc23)ccc1F)N1CCN(C(=O)C2CC2)CC1  Cmax at steady state (human; oral, dose not given, capsule): 5700 ng/mL
O=c1nc(-c2ccccn2)sc2ccccc12  Kd (MIF; binding): 68.6 nM
CO[C@@H](C)c1c(Nc2ccc([C@@H](N(C)C(=O)C3CCS(=O)(=O)CC3)C(F)(F)F)cc2)cnc2cc(Cl)nn12  IC50 (human MALT1; biochemical; high salt): 190 nM

For quick reference, copied from above (further values, each from its own experiment):
CC(Nc1nc(N2CCCC2)nc2ccccc12)c1ccccc1 (stereo not shown)  toxicity (HeLa; 100 µM): toxic
